{"data": "Assay results collected from several papers", "cell line": "HeLa", "note": "Protocols differ between the studies behind these lines. ± gives the spread as reported."}
{"SMILES": "CC(C)C12OC1C1OC13C1(C)CCC4=C(COC4=O)C1CC1OC13C2OC(=O)CCCOC1OC(CO)C(O)C(O)C1O (stereo not shown)", "test": "Hoechst staining", "conditions": "1 µM, 6% DMSO", "measurement": "cells with nuclear fragmentation", "result": "23%"}
{"SMILES": "Cc1ccc2ccc3ccc(C)nc3c2n1.O.[99Tc+].[C-]#[O+].[C-]#[O+].[C-]#[O+]", "test": "annexin V/PI", "conditions": "5 µM, 24 h", "measurement": "early apoptotic cells", "result": "19%"}
{"SMILES": "CC1=CC=c2ccc3c4c2[N]1[Re](=[C]=O)(=[C]=O)(=[C]=O)([C]#[N+]c1c(C)cccc1C)[N]4C(C)=CC=3.O=S(=O)([O-])C(F)(F)F", "test": "protein aggregation", "conditions": "10 µM, 30 min", "how to read": "relative to: untreated", "measurement": "ThT fluorescence", "result": "≥ 2 fold"}
{"SMILES": "CCCCN(CCCC)CC(O)COc1c2ccoc2c(OC)c2oc(CC)cc(=O)c12 (stereo not shown)", "test": "MTT", "how to read": "relative to: IC50 HaCaT over IC50 HeLa", "measurement": "selectivity index", "result": 1.94}
{"SMILES": "CC(=O)N[C@@H](CCCNC(=N)N)C(=O)N[C@@H](CCCNC(=N)N)C(=O)N[C@@H](CCCNC(=N)N)C(=O)N[C@@H](CCCNC(=N)N)C(=O)N[C@@H](CCCNC(=N)N)C(=O)N[C@@H](CCCNC(=N)N)C(=O)N[C@@H](CCCNC(=N)N)C(=O)N[C@@H](CCCNC(=N)N)C(=O)N[C@@H](CCCNC(=N)N)C(=O)N[C@@H](CCCNC(=N)N)C(=O)NCC(=O)N[C@@H](COP(=O)(O)O)C(=O)N1CCC[C@H]1C(=O)N[C@H](C(=O)N[C@@H](Cc1ccccc1)C(=O)O)[C@@H](C)O", "test": "DNA damage, immunostaining", "conditions": "10 µM, 30 min, with: ionizing radiation 5 Gy", "measurement": "γH2AX-positive cells", "result": "35.7 ± 2.78%"}
{"SMILES": "CC[C@H](C)[C@@H]([C@@H](CC(=O)N1CCC[C@H]1[C@H](OC)[C@@H](C)C(=O)NC(Cc1ccccc1)C(C)OC)OC)N(C)C(=O)[C@@H](NC(=O)[C@H]([C@@H](C)CC)N(C)C)C(C)C (stereo partly shown)", "test": "cytotoxicity", "how to read": "relative to: compound over MMAF, higher = more active than MMAF", "measurement": "potency ratio", "result": "10 fold"}
{"SMILES": "O=C(O)CC[C@H](NC(=O)CNC(=O)[C@@H](Cc1ccccc1)NC(=O)[C@@H](Cc1ccccc1)NC(=O)Cc1ccc2ccccc2c1)C(=O)N[C@@H](Cc1ccc(OP(=O)(O)O)cc1)C(=O)O", "conditions": "500 µM, 48 h", "measurement": "viability", "result": "> 100%"}
{"SMILES": "C[C@H](NC(=O)[C@H](CCCNC(=N)N)NC(=O)[C@H](CCC(=O)O)NC(=O)[C@H](CCCNC(=N)N)NC(=O)[C@H](CCCNC(=N)N)NC(=O)[C@@H](NC(=O)[C@H](CCCNC(=N)N)NC(=O)[C@H](C)NC(=O)[C@H](CCCNC(=N)N)NC(=O)[C@H](CCC(=O)O)NC(=O)[C@@H](N)CCCNC(=N)N)[C@@H](C)O)C(=O)N[C@@H](CCCNC(=N)N)C(=O)N[C@H](C(=O)N[C@@H](CCCNC(=N)N)C(=O)N[C@@H](CCC(=O)O)C(=O)N[C@@H](CCCNC(=N)N)C(=O)N[C@@H](C)C(=O)N[C@@H](CCCNC(=N)N)C(=O)N[C@H](C(=O)N[C@@H](CCCNC(=N)N)C(=O)O)[C@@H](C)O)[C@@H](C)O", "test": "measured: VEGF165", "conditions": "concentration not given", "measurement": "expression level", "result": "decreased"}
{"SMILES": "Nc1ncnc2c1ncn2CC(=O)N[C@@H](Cc1ccccc1)C(=O)N[C@@H](Cc1ccccc1)C(=O)N[C@@H](Cc1ccc(OP(=O)(O)O)cc1)C(=O)O", "test": "MTT", "conditions": "500 µM, 72 h", "measurement": "viability", "result": "100%"}
{"SMILES": "CC[C@@]1(O)C(=O)OCc2c1cc1n(c2=O)Cc2cc3cc(OC(=O)CCCC(=O)NCC(=O)N[C@@H](Cc4ccccc4)C(=O)N[C@@H](Cc4ccccc4)C(=O)N[C@@H](Cc4ccc(OP(=O)(O)O)cc4)C(=O)NCCSSCCNC(=O)CCC(=O)N[C@@H](CCC(=O)O)C(=O)N[C@@H](CCCNC(=N)N)C(=O)NCC(=O)N[C@@H](CC(=O)O)C(=O)O)ccc3nc2-1", "test": "MTT", "conditions": "48 h", "how to read": "relative to: free HCPT over compound", "measurement": "IC50 ratio", "result": "4.21 fold"}
{"note": "Excerpt of the above:"}
{"SMILES": "CC1=CC=c2ccc3c4c2[N]1[Re](=[C]=O)(=[C]=O)(=[C]=O)([C]#[N+]c1c(C)cccc1C)[N]4C(C)=CC=3.O=S(=O)([O-])C(F)(F)F", "test": "protein aggregation", "conditions": "10 µM, 30 min", "how to read": "relative to: untreated", "measurement": "ThT fluorescence", "result": "≥ 2 fold"}
